Experimental data pooled from the literature.
Each numbered part is a random draw from the data of one study; scales do not carry over between parts.

Set 1
Target: Interferon regulatory factor 3, full length, phosphomimetic (IRF3, Homo sapiens, UniProt Q14653, residues 1-427, S386D/S396D/S398D/S402D/T404D/S405D)
Technique: protein-binding microarray
Form: double-stranded DNA, one strand shown
Matrix: in vitro
Concentration: 2540 nM top
Setting: 60-bp whole probe
Together with: salmon DNA 0.4 mg/ml
Relative to: random background probes
Direction: higher = stronger binding
Constant ends, left off below: GCCTAGCAC … GTCTTGATTCGCTTGACGCTGCTG
Residues (chain): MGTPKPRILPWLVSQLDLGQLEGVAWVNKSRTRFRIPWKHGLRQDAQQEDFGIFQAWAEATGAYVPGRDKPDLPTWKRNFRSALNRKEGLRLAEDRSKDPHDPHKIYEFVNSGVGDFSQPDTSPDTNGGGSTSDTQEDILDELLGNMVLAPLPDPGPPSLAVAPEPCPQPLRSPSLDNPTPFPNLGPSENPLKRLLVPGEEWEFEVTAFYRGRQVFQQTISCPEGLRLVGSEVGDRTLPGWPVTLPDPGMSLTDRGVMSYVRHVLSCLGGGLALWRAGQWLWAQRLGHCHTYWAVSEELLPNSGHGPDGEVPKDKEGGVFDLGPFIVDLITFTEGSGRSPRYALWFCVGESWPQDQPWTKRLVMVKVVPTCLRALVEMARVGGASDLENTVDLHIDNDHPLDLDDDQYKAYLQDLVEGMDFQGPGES
Strand | fitted relative affinity [z-score]
TCTCATTTCCAATTACCTTTGTGCTAG | 3.82
GACGACCTGAGACTGGAGACGTGCTAG | -0.593
GACGGACTGCTAATCCTGACGTGCTAG | -0.482
TTAAGACTGGGGTATCGGTTAGTGCTA | 0.0434
GACGGCCTCCTACTGCTGACGTGCTAG | -0.609
TTAGGTCTCGGTTTCGGTCAGTGCTAG | 4.12
TTAGATACCGGGACTGGATTAGTGCTA | -0.287
GACGGACTGGGGTTTCGGGAGGTGCTA | 0.119
TTAGGATTGCTTTTCCTTTAGTGCTAG | 2.15
TCTCGCTTCATCTCCCAGACTGTGCTA | 0.523
TGTCTTCCCCTCTCTTTCCAAGTGCTA | 1.63
GACCGACTGGACTTTCGGGACGTGCTA | 0.448
GGTTTTCTAATGTTTTTTAAAGTGCTA | 2.94
GACGGACTGGGATTTCGGGACGTGCTA | -0.415
CTAATATTGAGACTCATGGGGTGCTAG | 0.9
TTAGGTTTCCTTTCCCTTTAGTGCTAG | 10.7

Set 2
Target: Sal-like protein 4, full length isoform B (SALL4, Homo sapiens, UniProt Q9UJQ4-2, residues 1-616)
Technique: universal PBM
Form: double-stranded DNA, one strand shown
Matrix: in vitro
Concentration: not given
Setting: 8-mer, flanks averaged, mean of replicates
Direction: higher = stronger binding
Strand | E-score
CTCTAGGA | -0.182
TAAACGCA | 0.15
ATAGGGAT | 0.122
GAAAAGGA | 0.00039
GAATAGAA | 0.158
CCTAAGAA | 0.11
ATGGAGTC | 0.00141
ATACCCTG | -0.0375
GTTGGACA | 0.0726
ACCCCAAA | -0.237
CCTTACTC | -0.0506
AACGCTAA | -0.039
AATCGGTG | -0.00466
ACAGCGAA | 0.0557
CCGGGAGG | -0.425
AACCGTCT | -0.167
ATTTGGCC | -0.0337
ACGGCTAC | -0.0963
ACACTTGA | 0.121
GACTCCAA | -0.151
ATGCAGAG | -0.0548
AACGAGGG | -0.0891
CAGTAGCA | -0.0592
CCCTTTCA | -0.0311
CCACGTGC | -0.179

Set 3
Target: Histone acetyltransferase KAT6A, winged helix 2, GST fusion (KAT6A, Homo sapiens, UniProt Q92794, residues 85-181)
Technique: protein binding microarray
Form: double-stranded DNA, one strand shown
Matrix: in vitro
Concentration: not given
Setting: 8-mer, flanks averaged, mean of 2 arrays, mostly near background
Relative to: not given
Direction: higher = stronger binding
Target sequence (chain): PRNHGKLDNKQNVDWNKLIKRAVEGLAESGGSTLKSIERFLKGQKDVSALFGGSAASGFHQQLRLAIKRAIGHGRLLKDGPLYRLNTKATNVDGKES
Strand | E-score
ACGACACC | -0.0723
CTAGCCCC | -0.07
CAAGTGCA | -0.0454
CCTATAAC | -0.342
GAAATCCA | -0.00495
CAACAGGC | 0.082
AGCGGTTG | -0.0409
CATGCACA | -0.0765
ACCGACCA | -0.0122
ATACAGTG | -0.14
CGAGGAGC | 0.141
ACAAACGC | -0.0297
AATAACTA | -0.183
GCCCAACA | 0.0132
AGATGGAA | 0.033
ATTCAGGA | -0.0276
GCGATAAA | -0.00255
ATCCCATA | -0.0131
GGCAAGAA | 0.185
AATCGTGA | -0.0213
TACGTGCA | -0.282
CTCTTAAG | -0.0783
ATTCCGTG | -0.0435
ACGAAGAT | 0.0827
AGTTCTAA | 0.143

Set 4
Target: Fragile X messenger ribonucleoprotein 1, C-terminal low-complexity region (Fmr1, Mus musculus, UniProt P35922)
Technique: RNA Bind-n-Seq
Form: RNA
Matrix: in vitro
Concentration: 200 nM
Setting: whole 134-nt RNA, ends assumed
Together with: 150 mM LiCl
Relative to: input library
Direction: higher = stronger binding
Each molecule: 7-deaza-guanosine replaces G
Constant ends, left off below: GGGAGUUCUACAGUCCGACGAUC … UGGAAUUCUCGGGUGUCAAGG
Strand | log2 enrichment
GUCCUGUGCUACACAUCGUAUGUACCGAAUCGGGGAAAAAAAGGGGUGGGGAAAGGGGAAAGUAUUAUGUUACGCCGUUCGGAUCUGCAC | 0.181
GUCCUGUGCUACACAUCGUAUGUACCGAAUCGGGAAAGGGAAAAAAAGGGUUUUUGGGAAAGUAUUAUGUUACGCCGUUCGGAUCUGCAC | -1.41
AAGUCCUGUGCUACACAUCGUAUGUACCGAAUCGGGUGGGUUUUUUUGGGUUUGGGAAAGUAUUAUGUUACGCCGUUCGGAUCUGCACUU | -1.57
UCAAGUCCUGUGCUACACAUCGUAUGUACCGAAUCGGGCCGGGCCGGGGCCGGGGAAAGUAUUAUGUUACGCCGUUCGGAUCUGCACUUC | -0.198
UCCUGUGCUACACAUCGUAUGUACCGAAUCGGGGAGGGGUUUUUGGGGUUUUUUUGGGGAAAGUAUUAUGUUACGCCGUUCGGAUCUGCA | 0.00332
UCAAGUCCUGUGCUACACAUCGUAUGUACCGAAUCGGGAGGGUUUGGGAAAGGGAAAGUAUUAUGUUACGCCGUUCGGAUCUGCACUUCC | -0.733
GCAGGAAGUAAAAACAAAAAGAAAUGCUUCGGAUAGUGGCAGGGGUGGGGGUUGCUAAGGAAAGGGUGGGAUGGGAGUGGGUAAAGAGUU | 1.06
UGGGAGGUGGAUUUUGUUUAUUUUUUUAUCUCAUUUCCAGGGGUGGGAAUUUUUUUUUAAUAUGUGUCAUGAAUAAAGUUGUUUUUGAAA | -0.521

For quick reference, copied from above (set 3):
Strand | E-score
CGAGGAGC | 0.141
GAAATCCA | -0.00495
ATTCCGTG | -0.0435
TACGTGCA | -0.282
CCTATAAC | -0.342
AGTTCTAA | 0.143
ATTCAGGA | -0.0276
